Experimental data pooled from the literature.
Each line is one published result; not all experiments were run side by side.

Structure (SMILES) = C[C@@H]1OC(=O)NN=C1c1ccc(-c2ccc(F)cc2)c(C(F)(F)F)c1; assay = phase I trial, item: Cough all grades; test system = human patients; conditions = 5 mg once daily; endpoint = patients with adverse event; result = 0%
Structure (SMILES) = CCN(CCO)CCCC(C)Nc1ccnc2cc(Cl)ccc12 (stereo not drawn); test system = human, newly diagnosed glioblastoma; conditions = oral, 400 mg/dose, WBC decrease grade 1, with RT and TMZ; endpoint = patients with adverse event; result = 33%
Structure (SMILES) = O=C(c1ccc(F)c(F)c1Nc1ccc(I)cc1F)N1CC(O)([C@@H]2CCCCN2)C1; test system = human patients; conditions = oral, dose not given, dose escalation, suspension; endpoint = patients with treatment-related SAE; result = 4%
Structure (SMILES) = Cc1cn([C@H]2O[C@@H](CO[P@@](=O)(N[C@@H](C)C(=O)OC(C)C)Oc3ccccc3)[C@H](O)[C@H]2F)c(=O)[nH]c1=O; assay = item: external ear pain; test system = human; conditions = 50 mg; endpoint = patients with TEAE; result = 17%
Structure (SMILES) = Cn1ncc(-c2nc(N[C@H]3CC[C@H](N)CC3)ncc2Cl)c1CC1CC1; assay = item: treatment-related Vomiting; test system = human patients phase I; conditions = dose not given; endpoint = patients with adverse events; result = 38.7%
Structure (SMILES) = C=CC(=O)Nc1cc(Nc2nccc(Nc3cc(Cl)c(F)cc3C(C)(C)O)n2)c(OC)cc1N1CC[C@@H](N(C)C)C1; test system = human patients; conditions = oral, 300 mg, treatment-emergent adverse events; endpoint = patients with amylase increased; result = 15.7%
Structure (SMILES) = C[C@]1(O)C[C@@](N)(c2ccc(-c3nc4n(c3-c3ccccc3)COc3ccncc3-4)cc2)C1; test system = human, advanced or metastatic solid tumours; conditions = 20 mg once daily, phase I dose escalation; endpoint = patients with Hyperphosphatemia TEAE; result = 50%
Structure (SMILES) = COc1ncnn2ccc(-c3cnc4nc(C)n(Cc5nnc([C@@H](C)F)o5)c4c3)c12; test system = human; conditions = oral, dose not given, grade 2; endpoint = patients with malaise; result = 0%
Structure (SMILES) = CCS(=O)(=O)Nc1ccc(Oc2ccc(F)cc2F)c(-c2cn(C)c(=O)c3[nH]ccc23)c1; assay = item: Pneumonia; test system = human, relapsed/refractory AML; conditions = oral, dose not given, trial, with: alone or with venetoclax; endpoint = patients with serious adverse event; result = 16%

For quick reference, copied from above:
Structure (SMILES) = C[C@]1(O)C[C@@](N)(c2ccc(-c3nc4n(c3-c3ccccc3)COc3ccncc3-4)cc2)C1; test system = human, advanced or metastatic solid tumours; conditions = 20 mg once daily, phase I dose escalation; endpoint = patients with Hyperphosphatemia TEAE; result = 50%
